Assay results gathered from unrelated publications.
Parts stem from different laboratories: compare values within a part only.

Series 1
Target: Centromere-binding protein 1, full length, N-terminal tag (CBF1, Saccharomyces cerevisiae, UniProt P17106, residues 1-351)
UniProt P17106, sequence (whole entry, looked up): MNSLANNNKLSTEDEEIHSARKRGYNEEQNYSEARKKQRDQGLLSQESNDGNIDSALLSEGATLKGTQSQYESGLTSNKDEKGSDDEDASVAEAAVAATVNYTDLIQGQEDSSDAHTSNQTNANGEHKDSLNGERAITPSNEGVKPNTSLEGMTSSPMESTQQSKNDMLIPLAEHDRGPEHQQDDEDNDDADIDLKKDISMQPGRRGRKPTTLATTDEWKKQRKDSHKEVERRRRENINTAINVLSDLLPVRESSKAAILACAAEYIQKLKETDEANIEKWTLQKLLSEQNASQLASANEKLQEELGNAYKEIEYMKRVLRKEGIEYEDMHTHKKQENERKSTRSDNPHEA
Method: protein-binding microarray
Form: double-stranded DNA, one strand shown
Medium: in vitro
Tested at: 0.8 µM
Setting: whole 60-bp probe, no competitor
Direction: higher = stronger binding
Shared flanks, not repeated: … GTCTTGATTCGCTTGACGCTGCTG
The fluorescence intensity of `CTATCTGGAAAATTCCACGAGGTCCGTATATGATTC` is reported as 537 a.u.
The fluorescence intensity of `CTACAAATTTAACATCATGCCGGCATTGAATCATTC` is reported as 574 a.u.
For `GAACTTAAAAGTGTCCATGTGATGGGAGGGATCTAG`, the fluorescence intensity was 1500 a.u.
For `CTATTGAAATGATATGATCAGTTGAGAAAAAGCTTC`, the fluorescence intensity was 536 a.u.
The fluorescence intensity of `CTAACACTGCGCCTTTTCGTGATGATGCATTTGTTC` is reported as 544 a.u.
The fluorescence intensity of `GAATATACAACCAGGCACGGGACAACATCAAGATAG` is reported as 1030 a.u.
The fluorescence intensity of `CTACTGTCTTCTGCCCACGTCATATGAGTGGTATTC` is reported as 723 a.u.
With `GAAAACCCTCAGAAGCGGGTGACCCATCTCTCGTAG` the fluorescence intensity was 488 a.u.
With `CTAGCATTATAGCGCCACATGCGATGAACCTGATTC` the fluorescence intensity was 564 a.u.
For `GAACTACACGCGCACATGACGATAAAACTGGCCTAG`, the fluorescence intensity was 2360 a.u.
`GAAACTGAGAATGAGCGCGTGGGCCAGAAACGGTAG` has a fluorescence intensity of 586 a.u.
With `TGTACGAAGCTATGTCACGAGATTATAGTAGTTAGG` the fluorescence intensity was 2220 a.u.
For `CTAGGTAGTAACTATCCTGATGTTGATCCTAGTTTC`, the fluorescence intensity was 504 a.u.
`CTATAGTGGGAAGGACTGATGATGAATTCCCGTTTC` has a fluorescence intensity of 522 a.u.
`CCTAACTACTATAGACACATCACATAGCTTCGTACA` gave a fluorescence intensity of 502 a.u.
`CTACCTCCCGAACAACGTGAAATCTTTTTGCTTTTC` gave a fluorescence intensity of 613 a.u.
`GAACCTACATACTTGATCGTGACTTCTTGATTCTAG` gave a fluorescence intensity of 779 a.u.
For `CTATTTCGTTAACGTGGTGAAAAAGAAAAGAAATTC`, the fluorescence intensity was 807 a.u.
`GAACAATTTTTATTTCTGATGACTTTGAAATTTTAG` gave a fluorescence intensity of 517 a.u.
The fluorescence intensity of `GAAAAATCTTCAGGTCACAAGGTATACTTCACTTAG` is reported as 944 a.u.
`CTACGTAACGGCCGTGATGCGGCCTGAGCTCACTTC` gave a fluorescence intensity of 496 a.u.
The fluorescence intensity of `CTATGGAACAAATGTGTCACCAAGGTTGGAACATTC` is reported as 512 a.u.
The fluorescence intensity of `CCTAACTACTATAATCACGCGATATAGCTTCGTACA` is reported as 1320 a.u.
The fluorescence intensity of `CTATGGCTAGCGTCAAACGTCACCGATCTCTATTTC` is reported as 519 a.u.
`CTACAGAATTGCTGTCGCATCACCAAAAAAAAATTC` has a fluorescence intensity of 527 a.u.

Series 2
Target: Hepatocyte nuclear factor 3-alpha (Foxa1, Mus musculus, UniProt P35582, residues 1-468, full length assumed)
Method: EMSA with sequencing
Form: double-stranded DNA, one strand shown
Medium: in vitro
Tested at: 10 and 20 nM
Setting: whole designed probe, mean of two concentrations, ends assumed
Baseline: negative control set to 0
Direction: higher = stronger binding
Shared flanks, not repeated: GTGAGCGGTGCCCATTGATGGGGAAC … TTTCACTGGGATCGTGGGGAC
Residues (chain): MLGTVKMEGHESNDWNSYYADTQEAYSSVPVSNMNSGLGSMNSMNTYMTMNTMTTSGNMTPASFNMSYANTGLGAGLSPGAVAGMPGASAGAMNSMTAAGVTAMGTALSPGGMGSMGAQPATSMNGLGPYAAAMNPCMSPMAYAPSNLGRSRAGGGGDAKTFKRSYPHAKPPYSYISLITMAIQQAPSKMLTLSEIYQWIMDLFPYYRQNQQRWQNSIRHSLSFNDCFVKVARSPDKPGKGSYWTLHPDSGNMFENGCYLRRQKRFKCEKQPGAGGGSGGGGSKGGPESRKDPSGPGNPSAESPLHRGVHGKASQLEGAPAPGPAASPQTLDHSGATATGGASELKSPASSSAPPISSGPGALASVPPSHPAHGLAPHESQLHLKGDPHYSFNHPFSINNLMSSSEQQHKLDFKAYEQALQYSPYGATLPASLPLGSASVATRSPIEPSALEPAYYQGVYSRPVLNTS
Under “normalised bound fraction”, `AAATAAGGCGCGCGAGAGAGGCCAACACGTCGCGGAGGGAGATGTTGTTATTTTTTGCTGTTGTGCGTCCCTGACGTCACATCCACCTGCTGGGTAAACAACCGGGCTCCCAGAAAAAAAAAATCGCAATTGCCAAAGAATGGGGGGGGGGGTTGGGGGGAGGGATCCAGGGAGGGGGAAGTGAGGGGCGTCC` is recorded as 0.375 ratio.
Under “normalised bound fraction”, `AACAATTTAATTCCATTTTTATCAATGATATCTTCTTCTATGGAAGAAAATTAAGATAATTCAATGTTTTCCTACATCATTTAATATAAGGTTAAATTACTCTTGGAAACTTCCATTCTTTATTGCTCCTCAACAATAGCAACCACAAAAATTCCCATAATTCTCTCTTTAAAGATCAACCAAAATTAAGGAA` is recorded as -0.0143 ratio.
Under “normalised bound fraction”, `CACTCATAGTCTTGCTATCCTTCATATACAGAGATGACCGTCGCAAGCCTAAAATCAACAGGGGGAGGCATAGAGCTGTCCTTCTGGCTCTAATGTTTGCTTTACCATCATCCAGGCGCATTCTTAGTCCAGCATGTGAGAGCCAGTGTGAAGTGAGCAGAATATGGCATAAGTATGGAGTCATACATCCTTA` is recorded as 0.338 ratio.
Under “normalised bound fraction”, `GAGCTGCTTGCAATTGAGTTGTATGTATGCTTCCACTTAATACGTCCTGCCGAGCCTGTAAGCCAACAGGAATCTCACTTCCGGCGCCCTCTGTGTTTACCTACTCTCTTTTTATGTCTTATTCCCAGAATGACTGGGGACCAAAGGAATCCTTTGCAGGAGTTTTCTCCAGACAGACAGTTCCACATGCTAG` is recorded as 0.249 ratio.
For `AGGCACAAGGTATGAATCACTAAGAATCTAGCAGCAGCTCTAGAAGCCTCCAAAGATAATTGCACTTCCCCAACAGGGGGGGGTGGAGTGGACGTAAATATGAAAGAACAGTGGATGGCCTAAATCAGTATGTGTCACTCTTTGTAAAGAGCCACAAGTGTTTGACTAGGGAAAAAGGAAAAGAGGCGAGAGT`, “normalised bound fraction” read 0.0486 ratio.
For `CTCATTCCTTGCTTCCGCCAATAATCTGACTAGTAAAGAAGTCACTGCATGCCACAAATTGTCAGTGCTGGAGTGACTCAGAAGGAAGTTATTTATTTACTTATTTAATATATGAGTGTCACAGATGCAAATTCCATCTTGAGAATACCAACTCCTGATGCCAACTGATTGTCAGTCATGGCTACAACAGGAG`, “normalised bound fraction” read 0.481 ratio.

Series 3
Target: Histone acetyltransferase KAT6A, winged helix 1, GST fusion (KAT6A, Homo sapiens, UniProt Q92794, residues 1-85)
Method: protein binding microarray
Form: double-stranded DNA, one strand shown
Medium: in vitro
Tested at: not given
Setting: 8-mer, flanks averaged, mean of 2 arrays, mostly near background
Baseline: not given
Direction: higher = stronger binding
Residues (chain): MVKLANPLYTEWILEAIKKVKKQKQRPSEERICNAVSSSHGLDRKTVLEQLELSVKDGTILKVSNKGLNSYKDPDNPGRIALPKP
`ATATTCAC` has an E-score of -0.215.
`ATAGAAAG` has an E-score of -0.116.
The E-score of `ACAGCATC` is reported as -0.172.
The E-score of `ACGAGAGT` is reported as -0.127.
`CTAAAGAG` has an E-score of -0.148.
The E-score of `CAGCGCGC` is reported as 0.443.
`ATAAAGAC` has an E-score of -0.175.
For `GATCCGTA`, the E-score was 0.265.
For `ATACGAAA`, the E-score was -0.146.
`AGTTCTAG` gave an E-score of -0.117.
`TATAAACA` gave an E-score of -0.244.
`AAAAGGCC` has an E-score of 0.0671.
The E-score of `CCGCATGA` is reported as 0.113.
With `AATTGATA` the E-score was -0.0733.
`CCAATTCG` has an E-score of -0.258.
The E-score of `TACCAGGA` is reported as -0.0522.
With `AACGAAAG` the E-score was -0.0282.
`CTATTAAA` has an E-score of -0.149.
`ACTTATAT` has an E-score of -0.266.
For `TAACCCCA`, the E-score was -0.183.
For `GAGATACA`, the E-score was -0.0552.
With `AATTAGCC` the E-score was 0.0119.
`ATAAACTA` has an E-score of -0.0477.
`GTGATAGA` has an E-score of -0.0222.
With `CAGTGGGG` the E-score was -0.304.

Series 4
Target: RNA binding protein fox-1 homolog 2, RRM domain, GST-SBP tag (RBFOX2, Homo sapiens, UniProt O43251-10, residues 100-194)
Method: RNA Bind-n-Seq
Form: RNA
Medium: in vitro
Tested at: 365 nM
Setting: natural RNA segment, single round, ends assumed
Baseline: no-protein control
Direction: higher = stronger binding
Shared flanks, not repeated: GGGAGUUCUACAGUCCGACGAUC … UGGAAUUCUCGGGUGCCAA
Residues (chain): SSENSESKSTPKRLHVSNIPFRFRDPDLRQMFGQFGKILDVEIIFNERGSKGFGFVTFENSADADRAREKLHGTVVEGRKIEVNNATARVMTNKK
Under “RBNS enrichment (R)”, `UUUUCGUAUUUGUGCAGAAAAACAAAUUAGGCCUAAAGUAUUGGUUUUUACCUGUACCAUCCACUCCGUGCCUUACUGUAUCCUGUCCUGUCACAGCGGCUGCAAACAGU` is recorded as 0.3.
`CACUCAUCUGUCAAGUGGGGGCGCUUCCCUUCCAGCAUCACCUGCAGCAGACGGGCUCUCGGGAGUCGUGGGUUCCAGGCAGCUGUGUGGACCCAGGGACAGACAUUCAA` — result for “RBNS enrichment (R)”: 0.499.
`AGGCCACCUGGCCAGGCCUUCUACCUGGGCAGCACCUCUGCCGACGCCGUCCCACCAGCUUCACUCUCUCCGUCUGUUUUUGCAACUAGGUAUUUCUAACGCCAGCACAC` — result for “RBNS enrichment (R)”: 0.526.
For `GAAUUUUUUCAAAUGUUGGAAGGUGUGUGGUUCUUCCUGCCCUCCCUCCCCUUUUGGAAAUAUGAAAGCAAAUGUUUAGAAGAAUUCCUUUUGAAAAGCUGUGUCGUGUU`, “RBNS enrichment (R)” read 1.15.
`CUGUCUACUGACCAAUCAGUGUGGCAUGAGGCCCACGCCACCCAAACCUUUCACUUUCCAAAGAGCUAGCCGUCCUCCACCCAGUACCAUGUCCUAGCCUGUCUGCAUUU`: “RBNS enrichment (R)” 1.35.
Under “RBNS enrichment (R)”, `GGUGCCUGGCUGCCCAGCCUGCGGUAGCCGUGCUCCCUGCCCUCCUGUGGCCCUAUGGUGUGAUGCUGUGUCUGUAUCUAUGUGUCUAUACAAAGGUACUUGCCCUUUCC` is recorded as 0.9.
`CUCUUUCUCUCUGUUUUUAAAAUAAUCUAAAGAAAGCACAUUUUACCAUUGCUGUUGGGAGGAAGCAGAGGCAGAUGGGAAAGCAGAGAGAGGAGCGCGCUUCCUUUCCU` — result for “RBNS enrichment (R)”: 0.266.
For `GUGCCAUUUCAUGUCCUGUGUCAGUUUAUGUUUUGGUCCACUUUUCCAGUAUUUUAGUGGACCCUGAAAUGUGUGUGAUGUGACAUUUGUUAUUUUCAUUAGCAAAAAAA`, “RBNS enrichment (R)” read 0.897.
`GUGAAAACUUAACGCUUUUUGGAAGACAUUUCUGUAGCAUGUCAGUUUGGAGAAAUGAUGAGCUACGCCUUGAUGAAAGAACCGUGUUGGUGCUGCUAAGUUUAGCCAUU` — result for “RBNS enrichment (R)”: 2.32.
Under “RBNS enrichment (R)”, `UGAGGAGUUAGGCUGUAGAAGUGACAGUUUCCAGUCAAAUCUGUAAACCCAGCCCCCAAGCUGAGACCAGUCUCCCUGUGGCGGAGCCAGCCAAGAUGGGGCCAUUCUCU` is recorded as 0.333.
`AGCCCUUCAGAAGGGCUCAACUACUGUCCUAUACAAUCAAGUGACUGAAAUUCCUGGGAAGACACUUUGCUCCUCACCUAACCCCACCCCCAUCCCUAAACGAUGUUGUU`: “RBNS enrichment (R)” 0.356.
`CCCAAGGCACCAGUCACACAAGCUGAUGGGCGUCUUGGCUCUGCCGUCAUGUGGAUGUUAUUGUCGCGCGCGUCUAUAAUUACAAGGUUUUAUUCCUAUUUAAUGUUAUU` — result for “RBNS enrichment (R)”: 0.307.

For quick reference, copied from above (series 3):
For `GAGATACA`, the E-score was -0.0552.
`CTAAAGAG` has an E-score of -0.148.
The E-score of `TACCAGGA` is reported as -0.0522.
With `AATTGATA` the E-score was -0.0733.
`ACTTATAT` has an E-score of -0.266.
For `ATACGAAA`, the E-score was -0.146.
`GTGATAGA` has an E-score of -0.0222.
The E-score of `ACAGCATC` is reported as -0.172.
For `GATCCGTA`, the E-score was 0.265.
